Published values collected from several papers.
Lines come from different studies, so protocols differ. Several values in a cell are separate wells, animals, samples, runs or records. ± gives the spread as reported.
Organism: Plasmodium berghei

Structure (SMILES) = COCCC1=C(C(=O)OC)C(c2ccc(Cl)cc2C)C2=C(CC(c3ccc(OC)c(OC)c3)OC2=O)N1 (single isomer, unassigned); test = parasitaemia; test system = KBG-173, mouse; conditions = oral, 50 mg/kg, day 3 post-infection, PEG400 vehicle, Thompson test; how to read = baseline: vehicle; quantity = inhibition; value = < 10%
Structure (SMILES) = COC1=CC(c2ccc[nH]2)=N/C1=C\c1[nH]c(Cc2ccc(OC(F)(F)F)cc2)cc1Cc1ccc(OC(F)(F)F)cc1; test = bioluminescence; test system = mice; conditions = oral, 20 mg/kg/day, 48 h; how to read = baseline: vehicle; quantity = liver-stage parasite load suppression; value = 56.2%
Structure (SMILES) = C[C@H]1[C@H](OC(=O)CCC(=O)O)O[C@@H]2O[C@@]3(C)CC[C@H]4[C@H](C)CC[C@@H]1[C@@]24OO3; test system = NK65/GFP, infected mice; conditions = oral gavage, 65 µmol/kg once daily, 96 h dosing period; quantity = median survival; value = 28 days
Structure (SMILES) = Cl.N=C(CC(O)c1cc2c(F)cc(F)cc2c2cc(C(F)(F)F)ccc12)Nc1ccc(F)c(F)c1 (stereo not drawn); test = Peters test; test system = ANKA, mice; conditions = oral, 4 x 10 mg/kg; quantity = mean survival time; value = 20 days
Structure (SMILES) = COCCC1=C(C(=O)OC)C(c2ccc(Cl)cc2)C2=C(CC(c3ccc(OC)c(OC)c3)CC2=O)N1 (single isomer, unassigned); test = parasitaemia; test system = KBG-173, mouse; conditions = oral, 50 mg/kg, day 6 post-infection, PEG400 vehicle, Thompson test; how to read = baseline: vehicle; quantity = inhibition; value = 57.3%
Structure (SMILES) = COc1ccc(C[C@H](NC(=O)[C@H](C)NC(=O)CN2CCOCC2)C(=O)N[C@@H](Cc2ccccc2)C(=O)C2(C)CO2)cc1 (stereo in doubt); test system = ANKA, BALB/c mouse; conditions = 10 mg/kg; quantity = survival rate; value = > 80%
Structure (SMILES) = CC1(C)c2nc(-c3ccc(F)cc3)c(Nc3ccc(Cl)cc3)n2CCN1C(=O)CN; test system = HepG2, ANKA GFP-Luc; conditions = liver stage; quantity = EC50; value = 19 ± 9 nM
Structure (SMILES) = Cl.N=C(CC(O)c1cc2c(F)cc(F)cc2c2cc(C(F)(F)F)ccc12)Nc1ccc(Br)cc1 (stereo not drawn); test = Peters suppressive test; test system = ANKA, infected mice; conditions = oral, 4 x 50 mg/kg, day 4; how to read = baseline: untreated control; quantity = parasitemia reduction; value = 99.8% and > 99%
Structure (SMILES) = C[C@H]1[C@H](OC(=O)CCC(=O)O)O[C@@H]2O[C@@]3(C)CC[C@H]4[C@H](C)CC[C@@H]1[C@@]24OO3; test system = ANKA GFP-transfected, Mus musculus; conditions = oral, 4 x 100 mg/kg, day 4 post infection; quantity = parasitaemia inhibition; value = 99.9%

For quick reference, copied from above:
Structure (SMILES) = Cl.N=C(CC(O)c1cc2c(F)cc(F)cc2c2cc(C(F)(F)F)ccc12)Nc1ccc(F)c(F)c1 (stereo not drawn); test = Peters test; test system = ANKA, mice; conditions = oral, 4 x 10 mg/kg; quantity = mean survival time; value = 20 days
